Experimental data collected from several papers.
Each numbered part is a random draw from the data of one study; scales do not carry over between parts.
Chain of UniProt P53355 (whole entry, looked up): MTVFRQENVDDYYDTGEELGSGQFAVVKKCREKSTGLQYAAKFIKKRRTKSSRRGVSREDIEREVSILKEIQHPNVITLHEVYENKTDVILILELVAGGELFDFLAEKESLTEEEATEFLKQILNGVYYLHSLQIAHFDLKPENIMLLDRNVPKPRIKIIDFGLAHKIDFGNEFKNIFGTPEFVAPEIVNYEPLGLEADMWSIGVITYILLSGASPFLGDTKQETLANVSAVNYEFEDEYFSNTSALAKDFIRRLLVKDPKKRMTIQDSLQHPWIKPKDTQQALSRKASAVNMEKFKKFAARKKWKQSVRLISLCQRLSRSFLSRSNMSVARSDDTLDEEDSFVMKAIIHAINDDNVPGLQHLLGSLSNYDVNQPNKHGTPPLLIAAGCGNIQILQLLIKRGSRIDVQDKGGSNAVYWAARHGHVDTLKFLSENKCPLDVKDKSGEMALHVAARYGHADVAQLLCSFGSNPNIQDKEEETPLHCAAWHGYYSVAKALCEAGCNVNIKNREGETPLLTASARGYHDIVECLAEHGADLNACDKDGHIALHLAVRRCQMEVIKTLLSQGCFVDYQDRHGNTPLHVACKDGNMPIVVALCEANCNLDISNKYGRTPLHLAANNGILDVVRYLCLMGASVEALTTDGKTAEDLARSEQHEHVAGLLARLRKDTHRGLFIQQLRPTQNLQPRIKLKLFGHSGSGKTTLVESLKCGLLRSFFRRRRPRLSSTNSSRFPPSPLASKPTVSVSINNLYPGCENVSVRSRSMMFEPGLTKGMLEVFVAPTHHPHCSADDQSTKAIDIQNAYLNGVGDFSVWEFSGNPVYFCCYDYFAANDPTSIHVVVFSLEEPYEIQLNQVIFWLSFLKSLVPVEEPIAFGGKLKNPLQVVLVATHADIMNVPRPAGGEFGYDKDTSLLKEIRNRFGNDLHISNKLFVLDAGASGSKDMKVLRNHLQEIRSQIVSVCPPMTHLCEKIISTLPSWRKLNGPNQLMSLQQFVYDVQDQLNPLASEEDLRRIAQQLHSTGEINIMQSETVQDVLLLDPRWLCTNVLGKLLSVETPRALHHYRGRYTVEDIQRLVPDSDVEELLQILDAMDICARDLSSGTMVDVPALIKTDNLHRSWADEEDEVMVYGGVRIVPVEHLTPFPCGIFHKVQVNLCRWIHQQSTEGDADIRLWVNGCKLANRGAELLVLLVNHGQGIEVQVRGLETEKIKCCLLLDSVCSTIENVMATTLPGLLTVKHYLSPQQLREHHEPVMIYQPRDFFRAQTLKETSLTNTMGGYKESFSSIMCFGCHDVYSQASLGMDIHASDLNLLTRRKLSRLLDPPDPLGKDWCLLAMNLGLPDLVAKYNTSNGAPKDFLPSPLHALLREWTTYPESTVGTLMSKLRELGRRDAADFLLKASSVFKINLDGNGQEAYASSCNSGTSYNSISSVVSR
Chain of UniProt Q14012 (whole entry, looked up): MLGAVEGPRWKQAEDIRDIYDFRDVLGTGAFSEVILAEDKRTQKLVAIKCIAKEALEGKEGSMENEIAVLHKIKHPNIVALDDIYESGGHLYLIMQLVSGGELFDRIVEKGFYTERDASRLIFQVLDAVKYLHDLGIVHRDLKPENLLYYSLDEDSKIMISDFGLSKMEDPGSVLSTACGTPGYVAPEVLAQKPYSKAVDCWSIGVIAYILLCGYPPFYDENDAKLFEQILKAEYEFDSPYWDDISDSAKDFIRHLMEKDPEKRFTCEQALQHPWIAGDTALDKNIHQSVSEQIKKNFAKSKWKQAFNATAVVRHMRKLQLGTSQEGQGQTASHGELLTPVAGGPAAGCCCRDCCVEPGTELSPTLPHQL

Set 1 — technique: RNA Bind-n-Seq; form: RNA; sample: in vitro; concentration: 20 nM; notes: 6-mer, flanks averaged, single round; together with: 150 mM LiCl; baseline: input library; reading: higher = stronger binding
Target: TAR DNA-binding protein 43, full length, His tag (TARDBP, Homo sapiens, UniProt Q13148, residues 1-414)
Sequence | 6-mer enrichment (R)
UGUCCU | 0.994
GGCUUA | 0.924
CCACAU | 0.93
CGUUGA | 0.919
UAGUCC | 0.894
UAGUGA | 1.01
ACAGGG | 1
GUCUUU | 1.09

Set 2 — technique: protein binding microarray; form: double-stranded DNA, one strand shown; sample: in vitro; concentration: not given; baseline: not given; reading: higher = stronger binding
Target: Histone acetyltransferase KAT6A, both winged helices, GST fusion (KAT6A, Homo sapiens, UniProt Q92794, residues 1-181)
Notes: 8-mer, flanks averaged, mean of 2 arrays, mostly near background
Target sequence (chain): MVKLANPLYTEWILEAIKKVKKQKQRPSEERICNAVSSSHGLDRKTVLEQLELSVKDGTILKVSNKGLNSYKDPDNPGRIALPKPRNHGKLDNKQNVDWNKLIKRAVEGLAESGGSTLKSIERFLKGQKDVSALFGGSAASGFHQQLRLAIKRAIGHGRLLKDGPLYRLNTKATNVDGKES
Sequence | E-score
TAATTAGA | -0.135
CGCGAGGA | 0.181
AAGTGTCC | 0.0215
GCGGATTA | 0.15
ATATTCTA | 0.0691
AAGTAGGT | -0.0815
AACGCAAC | -0.0672
TCAAGCAA | -0.0701

Mixed results
SMILES | target | test | conditions | scale | endpoint | value
CNCc1ccccc1-c1csc([C@@H](C)Nc2nc(C)nc3cc(OC)c(OC)cc23)c1 | DAPK1 (Homo sapiens, UniProt P53355) | cell-free assay, competition with immobilised ligand | 1 µM | – | remaining binding | 99%
Cc1ccc(S(=O)(=O)/C=C/C#N)cc1 | CAMK1 (Homo sapiens, UniProt Q14012) | enzyme activity, inhibitor | 0.5 µM | baseline: control | remaining activity | 98.8%

Repeated from above (set 1):
Sequence | 6-mer enrichment (R)
CGUUGA | 0.919
UAGUCC | 0.894
UAGUGA | 1.01
